Experimental data collected from several papers.
Compare with care: the assays were run in different laboratories. ± gives the spread as reported. In brackets after ≈: the same amount, converted by molar mass.

NCC12C3CCC4C3C3C(CCC31)C42  EC50 (Influenza A virus; viral replication, inhibitor; H3N2): > 100 µM
COC[C@@H](NC(C)=O)C(=O)NCc1ccc(N=[N+]=[N-])cc1  current recovery (voltage-gated sodium channel; sodium current, whole-cell patch clamp; CAD; 40 µM, 5 min washout, test potential -10 mV, together with: UV irradiation; baseline: UV-irradiated cells without drug): 75%
CCCCCCCCC(=O)NCc1ccc(O)c(OC)c1  IC50 (mAb 5-3H1; antibody binding, indirect competitive ELISA; together with: coating antigen 4-OVA): 0.00404 µg/mL (≈ 0.0138 µM)
CCN(Cc1ccccc1)C(=O)CCc1nc(CN2CCN(C(=O)Cc3ccc(OC)c(OC)c3)CC2)no1  rheobase (current clamp; L4-L6 DRG neurons, rat CCI model; 10 µM): 443 ± 36.9 pA
C[C@@](O)(C(F)F)[C@H](NC(=O)c1ccc(C#CC#CC2CC2)cc1)C(=O)NO  MIC50 (Citrobacter koseri; agar dilution; clinical isolates): 0.032 µg/mL (≈ 0.085 µM)
Nc1ccc(/C=C/C(=O)N2CCc3c(oc4c(-c5ccc(F)cc5)cc(-c5ccc(C(=O)N6CCC(F)(F)CC6)cn5)cc34)C2)cn1  PAK4 and p-PAK4 levels (western blot; mice, Pan02 allograft, tumour; 100 mg/kg): decreased
CC(=N)N1CC23C4C5CC5C5C4C4C2C2CC2C4C53C1 (centres unmarked)  EC50 (Influenza A virus; viral replication; MDCK, H1N1 A/PR/8/34): > 100 µM
COc1ccc(-n2cc(C(=O)N3C[C@]4(OC(=O)c5ccccc5NC(C)=O)CC[C@H](OC)[C@@]56[C@@H]4C[C@@H]([C@@H]35)[C@@]3(O)C[C@H](OC)[C@H]4C[C@@H]6[C@]3(O)[C@H]4OC)nn2)cc1  nitric oxide level (Griess; ICR mouse, LPS-induced lung injury, BALF; oral, 5, 10, 15 mg/kg): decreased
Cc1ccccc1N1C(=O)/C(=C/c2ccc(OCc3cccc(C(=O)O)c3)cc2)C(=O)NC1=S  T cell activation threshold shift (LYP (PTPN22), human; NFAT-AP1 reporter gene, inhibitor; Jurkat TAg; 5 µM, together with: anti-CD3 (OKT3); baseline: untreated cells): ~0.5 log units anti-CD3
CC[C@H](C)[C@H](NC(=O)[C@@H](NC(=O)[C@H](CC(=O)O)NC(C)=O)[C@@H](C)O)C(=O)N[C@@H](CCCNC(=N)N)C(=O)N[C@@H](CC(C)C)C(=O)N[C@@H](CC(C)C)C(=O)N[C@@H](Cc1ccccc1)C(=O)N[C@@H](CCC(N)=O)C(=O)N[C@@H](CC(C)C)C(=O)N[C@@H](CCSC)C(=O)N[C@@H](CCCNC(=N)N)C(=O)N1CCC[C@H]1C(=O)N1CCC[C@H]1C(=O)N[C@@H](CC(N)=O)C(=O)N[C@@H](CCSC)C(=O)N[C@H](C(=O)N1CCC[C@H]1C(=O)N[C@@H](C)C(=O)N[C@H](C(=O)N[C@@H](CC(N)=O)C(=O)N[C@@H](C)C(N)=O)C(C)C)[C@@H](C)O  α4β7+ CCR9− cells (item: HA-29 tetramer; antigen-experienced tetramer+ CD4 T cells, healthy adults, HLA-DRB1*0101; dose not given): 57.1%
CCCCCc1cc(O)c2c(c1)OC(C)(C)C1CCC(C)=CC21 (centres unmarked)  intraocular pressure (rabbit, α-chymotrypsin glaucoma model; topical, 50 µL of 0.8% w/v, 1 h; baseline: baseline): 66.6%

Some of these lines once more:
COC[C@@H](NC(C)=O)C(=O)NCc1ccc(N=[N+]=[N-])cc1  current recovery (voltage-gated sodium channel; sodium current, whole-cell patch clamp; CAD; 40 µM, 5 min washout, test potential -10 mV, together with: UV irradiation; baseline: UV-irradiated cells without drug): 75%
C[C@@](O)(C(F)F)[C@H](NC(=O)c1ccc(C#CC#CC2CC2)cc1)C(=O)NO  MIC50 (Citrobacter koseri; agar dilution; clinical isolates): 0.032 µg/mL (≈ 0.085 µM)
